{"data": "Published values pooled from the literature", "target": "Mitogen-activated protein kinase 14 (MAPK14, Homo sapiens, UniProt Q16539)", "note": "Each line is one published result; not all experiments were run side by side.", "chain of UniProt Q16539 (whole entry, looked up)": "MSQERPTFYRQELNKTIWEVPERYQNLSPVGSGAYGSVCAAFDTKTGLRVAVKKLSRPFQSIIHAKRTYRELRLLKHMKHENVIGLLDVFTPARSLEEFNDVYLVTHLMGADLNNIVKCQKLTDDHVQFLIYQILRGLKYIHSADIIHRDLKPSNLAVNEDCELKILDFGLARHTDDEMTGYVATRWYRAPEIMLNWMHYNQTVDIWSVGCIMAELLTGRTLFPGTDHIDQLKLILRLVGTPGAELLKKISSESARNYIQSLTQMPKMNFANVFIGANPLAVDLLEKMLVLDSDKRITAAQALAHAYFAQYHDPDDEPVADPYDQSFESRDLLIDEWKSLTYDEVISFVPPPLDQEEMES"}
{"Structure (SMILES)": "CCn1c(=O)c(Oc2ccc(F)cc2F)cc2cnc(NCCOC(C)C)nc21", "observed": "enzyme activity", "mode": "inhibitor", "method": "FRET", "measurement": "IC50", "value": "0.025 µM"}
{"Structure (SMILES)": "Cc1ccc([N+](=O)[O-])cc1S(=O)(=O)N(C)/N=C/c1cnc2ccc(Br)cn12", "observed": "enzyme activity", "mode": "inhibitor", "method": "ADP detection", "measurement": "IC50", "value": "> 10 µM"}
{"Structure (SMILES)": "Cc1cc(NC(=O)c2cccc(-n3cc(NC(=O)Nc4ccc(F)cc4)cn3)c2)ccn1", "observed": "enzyme activity", "mode": "inhibitor", "measurement": "IC50", "value": "> 10 µM"}
{"Structure (SMILES)": "CN(C)c1ccc(C#CCOC(=O)[C@]2(C)C=C(C(=O)OC(C)(C)C)C(=O)CC2)cc1", "observed": "ligand displacement", "method": "FP", "measurement": "Ki", "value": "3.1 µM"}
{"Structure (SMILES)": "Cc1ccc(NC(=O)Nc2cnn(-c3cccc(C(=O)Nc4ccnc(C)c4)c3)c2)cc1", "observed": "enzyme activity", "mode": "inhibitor", "measurement": "IC50", "value": "> 10 µM"}
{"Structure (SMILES)": "Fc1ccc(-c2nc[nH]c2-c2ccnc(Nc3ccc(N4CCOCC4)cc3)c2)cc1", "observed": "enzyme activity", "mode": "inhibitor", "method": "ELISA", "measurement": "IC50", "value": "0.021 µM"}
{"Structure (SMILES)": "Oc1cc(-c2ccccc2Cl)[nH]n1", "observed": "binding", "method": "microscale thermophoresis", "setting": "saturation not reached", "measurement": "Kd", "value": "1150 µM"}
{"Structure (SMILES)": "COC(=O)[C@@]1(Cc2ccccc2)C=C(C(=O)OC(C)(C)C)C(=O)CC1", "observed": "ligand displacement", "method": "FP", "measurement": "Ki", "value": "0.8 µM"}
{"Structure (SMILES)": "Nc1nnc(Nc2ccc(Cl)cc2)[nH]1", "method": "SPR", "measurement": "Kd", "value": "1380 µM"}
{"Structure (SMILES)": "COC(=O)C1(CCCCl)C=C(C(=O)OC(C)(C)C)C(=O)CC1 (stereo not drawn)", "observed": "ligand displacement", "method": "FP", "measurement": "Ki", "value": "1.2 µM"}
{"Structure (SMILES)": "Cc1ccc(NC(=O)C(Cc2ccccc2)NC(=O)Cn2cnc(C(F)(F)F)c2)c(C)c1 (stereo not drawn)", "observed": "enzyme activity", "mode": "inhibitor", "method": "ELISA", "measurement": "IC50", "value": "0.404 µM"}
{"Structure (SMILES)": "CCOC(=O)C1(C)C=C(C(=O)OC)C(=O)CC1 (stereo not drawn)", "observed": "ligand displacement", "method": "FP", "measurement": "Ki", "value": "8.5 µM"}
{"Structure (SMILES)": "N#Cc1ccc(Nc2n[nH]c(N)n2)cc1", "observed": "binding", "method": "SPR", "measurement": "Kd", "value": "635 µM"}
{"Structure (SMILES)": "Cc1cc(NC(=O)c2cccc(-n3cc(NC(=O)Nc4ccc(Cl)cc4)cn3)c2)ccn1", "observed": "enzyme activity", "mode": "inhibitor", "measurement": "IC50", "value": "> 10 µM"}
{"Structure (SMILES)": "COC(=O)C1(C)C=C(C(=O)O)C(=O)CC1 (stereo not drawn)", "observed": "ligand displacement", "method": "FP", "measurement": "Ki", "value": "> 200 µM"}
{"note": "Excerpt of the above:"}
{"Structure (SMILES)": "CCOC(=O)C1(C)C=C(C(=O)OC)C(=O)CC1 (stereo not drawn)", "observed": "ligand displacement", "method": "FP", "measurement": "Ki", "value": "8.5 µM"}
